Measurements collected from several papers.
Each line is one published result; not all experiments were run side by side.

Compound = CNC(=O)c1ccc(-c2cnc3ncc(Cc4ccc5ncccc5c4)n3n2)cc1F; test = item: Fatigue, all grades; test system = cancer patients; conditions = oral, 600 mg twice daily, other expansion cohort, any causality; quantity = patients with adverse event; result = 28%
Compound = O=C(Nc1nc2cccc(-c3ccc(CN4CCS(=O)(=O)CC4)cc3)n2n1)C1CC1; test system = rheumatoid arthritis patients; conditions = oral, 100 mg twice daily, 4 weeks, regardless of relatedness; quantity = patients with pain in extremity; result = 0%
Compound = Cc1cc(-c2nnc(N)nc2-c2ccc(F)cc2)cc(Cl)n1; test = item: Myositis; test system = IO-naive mCRPC patients, male; conditions = oral, dose not given, treatment-related, all grades; quantity = patients with immune-mediated AE; result = 0%
Compound = C=CCN1CC(=O)N2[C@@H](Cc3ccc(O)cc3F)C(=O)N(Cc3cccc(N4CC(N5CCN(CC)CC5)C4)n3)C[C@@H]2N1C(=O)NCc1ccccc1; test system = advanced solid tumour patients; conditions = 15 mg twice daily, treatment-related, any grade; quantity = patients with ALT increased; result = 0%
Compound = C=CC[C@@H]1/C=C(\C)C[C@H](C)C[C@H](OC)[C@H]2O[C@@](O)(C(=O)C(=O)N3CCCC[C@H]3C(=O)O[C@H](/C(C)=C/[C@@H]3CC[C@@H](O)[C@H](OC)C3)[C@H](C)[C@@H](O)CC1=O)[C@H](C)C[C@@H]2OC; test system = kidney transplant recipients, whole blood; conditions = oral, dose not given; quantity = patients with subtherapeutic C0; result = 47%
Compound = Cc1cc(NC2CCN(C(=O)OC3CCN(C(=O)/C=C/CN(C)C)C3)CC2)n2ncc(C(C)C)c2n1 (centres unmarked); test system = patients with advanced solid tumours; conditions = dose not given, QD arm, grade 3 or higher; quantity = patients with Nausea; result = 2%
Compound = CC(C)C[C@H](NC(=O)[C@@H](Cc1c[nH]c2ccccc12)NC(=O)[C@H](Cc1ccc(O)cc1)NC(=O)[C@H](CO)NC(=O)[C@H](Cc1c[nH]c2ccccc12)NC(=O)[C@H](Cc1c[nH]cn1)NC(=O)[C@@H]1CCC(=O)N1)C(=O)N[C@@H](CCCNC(=N)N)C(=O)N1CCC[C@H]1C(=O)NCC(N)=O; test system = Chinese CPP children, girls; conditions = intramuscular, 22.5 mg, 12 months, day 1, month 6; quantity = patients with adverse events; result = 88.7%
Compound = COc1cc(Nc2ncc3c(n2)-c2ccc(Cl)cc2C(c2c(F)cccc2OC)=NC3)ccc1C(=O)O; test system = cancer patients; conditions = oral, dose not given, grade 3 any attribution, with: pembrolizumab; quantity = patients with febrile neutropenia; result = 8%
